Experimental data of several laboratories.
Each numbered part is a random draw from the data of one study; scales do not carry over between parts.
UniProt P10721, sequence (whole entry, unmodified, looked up): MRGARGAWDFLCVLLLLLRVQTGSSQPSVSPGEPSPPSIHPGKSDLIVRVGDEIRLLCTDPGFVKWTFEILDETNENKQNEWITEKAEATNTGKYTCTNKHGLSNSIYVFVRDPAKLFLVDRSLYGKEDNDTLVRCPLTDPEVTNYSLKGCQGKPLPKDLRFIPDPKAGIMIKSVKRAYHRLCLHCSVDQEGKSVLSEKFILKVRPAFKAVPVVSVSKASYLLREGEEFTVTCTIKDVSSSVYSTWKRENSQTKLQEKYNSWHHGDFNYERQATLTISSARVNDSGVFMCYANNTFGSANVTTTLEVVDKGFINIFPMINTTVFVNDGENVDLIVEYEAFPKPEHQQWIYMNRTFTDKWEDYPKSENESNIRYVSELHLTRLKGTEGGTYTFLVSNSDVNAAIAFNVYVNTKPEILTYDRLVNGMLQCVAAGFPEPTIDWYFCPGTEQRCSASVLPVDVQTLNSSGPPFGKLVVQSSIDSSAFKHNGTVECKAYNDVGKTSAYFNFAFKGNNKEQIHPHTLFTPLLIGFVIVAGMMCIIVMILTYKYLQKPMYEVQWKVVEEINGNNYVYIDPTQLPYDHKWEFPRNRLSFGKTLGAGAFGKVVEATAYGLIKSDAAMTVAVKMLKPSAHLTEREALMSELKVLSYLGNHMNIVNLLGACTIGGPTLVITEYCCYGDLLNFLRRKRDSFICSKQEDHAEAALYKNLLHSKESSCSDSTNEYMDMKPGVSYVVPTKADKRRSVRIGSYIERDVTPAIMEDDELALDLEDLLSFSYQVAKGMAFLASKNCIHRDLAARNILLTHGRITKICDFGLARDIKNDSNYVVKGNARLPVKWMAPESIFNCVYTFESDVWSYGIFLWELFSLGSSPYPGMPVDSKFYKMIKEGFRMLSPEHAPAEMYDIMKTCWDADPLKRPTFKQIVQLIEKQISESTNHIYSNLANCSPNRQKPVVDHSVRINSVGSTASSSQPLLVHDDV
UniProt Q9BYT3, sequence (whole entry, looked up): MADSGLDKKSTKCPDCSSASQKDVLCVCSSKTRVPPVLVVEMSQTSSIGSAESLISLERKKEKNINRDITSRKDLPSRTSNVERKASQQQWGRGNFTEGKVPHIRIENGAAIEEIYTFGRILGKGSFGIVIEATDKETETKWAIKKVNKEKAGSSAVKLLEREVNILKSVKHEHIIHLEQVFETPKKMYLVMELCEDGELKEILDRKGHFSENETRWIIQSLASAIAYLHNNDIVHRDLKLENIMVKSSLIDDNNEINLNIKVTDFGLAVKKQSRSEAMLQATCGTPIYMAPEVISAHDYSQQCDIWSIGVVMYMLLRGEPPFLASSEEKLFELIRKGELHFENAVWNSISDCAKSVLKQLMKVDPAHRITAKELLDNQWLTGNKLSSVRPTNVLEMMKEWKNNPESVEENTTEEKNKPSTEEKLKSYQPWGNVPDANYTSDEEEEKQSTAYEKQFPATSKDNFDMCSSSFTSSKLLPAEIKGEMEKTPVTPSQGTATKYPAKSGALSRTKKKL
UniProt Q00536, sequence (whole entry, looked up): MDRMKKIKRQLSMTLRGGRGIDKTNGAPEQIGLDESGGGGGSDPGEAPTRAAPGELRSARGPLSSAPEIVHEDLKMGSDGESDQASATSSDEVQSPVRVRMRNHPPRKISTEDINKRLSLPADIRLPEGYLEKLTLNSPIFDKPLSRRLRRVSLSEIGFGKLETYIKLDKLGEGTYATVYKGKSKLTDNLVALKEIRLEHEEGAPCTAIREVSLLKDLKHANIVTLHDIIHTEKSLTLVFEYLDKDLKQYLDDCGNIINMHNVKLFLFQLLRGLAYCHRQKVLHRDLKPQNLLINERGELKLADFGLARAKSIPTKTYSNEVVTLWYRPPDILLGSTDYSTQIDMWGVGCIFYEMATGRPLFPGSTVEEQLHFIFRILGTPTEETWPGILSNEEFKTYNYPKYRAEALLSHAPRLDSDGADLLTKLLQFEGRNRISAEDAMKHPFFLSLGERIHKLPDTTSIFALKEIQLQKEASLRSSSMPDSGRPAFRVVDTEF

Sample 1
Target: DNA polymerase theta, ATPase domain (POLQ, Homo sapiens, UniProt O75417)
UniProt O75417, sequence (whole entry, unmodified, looked up): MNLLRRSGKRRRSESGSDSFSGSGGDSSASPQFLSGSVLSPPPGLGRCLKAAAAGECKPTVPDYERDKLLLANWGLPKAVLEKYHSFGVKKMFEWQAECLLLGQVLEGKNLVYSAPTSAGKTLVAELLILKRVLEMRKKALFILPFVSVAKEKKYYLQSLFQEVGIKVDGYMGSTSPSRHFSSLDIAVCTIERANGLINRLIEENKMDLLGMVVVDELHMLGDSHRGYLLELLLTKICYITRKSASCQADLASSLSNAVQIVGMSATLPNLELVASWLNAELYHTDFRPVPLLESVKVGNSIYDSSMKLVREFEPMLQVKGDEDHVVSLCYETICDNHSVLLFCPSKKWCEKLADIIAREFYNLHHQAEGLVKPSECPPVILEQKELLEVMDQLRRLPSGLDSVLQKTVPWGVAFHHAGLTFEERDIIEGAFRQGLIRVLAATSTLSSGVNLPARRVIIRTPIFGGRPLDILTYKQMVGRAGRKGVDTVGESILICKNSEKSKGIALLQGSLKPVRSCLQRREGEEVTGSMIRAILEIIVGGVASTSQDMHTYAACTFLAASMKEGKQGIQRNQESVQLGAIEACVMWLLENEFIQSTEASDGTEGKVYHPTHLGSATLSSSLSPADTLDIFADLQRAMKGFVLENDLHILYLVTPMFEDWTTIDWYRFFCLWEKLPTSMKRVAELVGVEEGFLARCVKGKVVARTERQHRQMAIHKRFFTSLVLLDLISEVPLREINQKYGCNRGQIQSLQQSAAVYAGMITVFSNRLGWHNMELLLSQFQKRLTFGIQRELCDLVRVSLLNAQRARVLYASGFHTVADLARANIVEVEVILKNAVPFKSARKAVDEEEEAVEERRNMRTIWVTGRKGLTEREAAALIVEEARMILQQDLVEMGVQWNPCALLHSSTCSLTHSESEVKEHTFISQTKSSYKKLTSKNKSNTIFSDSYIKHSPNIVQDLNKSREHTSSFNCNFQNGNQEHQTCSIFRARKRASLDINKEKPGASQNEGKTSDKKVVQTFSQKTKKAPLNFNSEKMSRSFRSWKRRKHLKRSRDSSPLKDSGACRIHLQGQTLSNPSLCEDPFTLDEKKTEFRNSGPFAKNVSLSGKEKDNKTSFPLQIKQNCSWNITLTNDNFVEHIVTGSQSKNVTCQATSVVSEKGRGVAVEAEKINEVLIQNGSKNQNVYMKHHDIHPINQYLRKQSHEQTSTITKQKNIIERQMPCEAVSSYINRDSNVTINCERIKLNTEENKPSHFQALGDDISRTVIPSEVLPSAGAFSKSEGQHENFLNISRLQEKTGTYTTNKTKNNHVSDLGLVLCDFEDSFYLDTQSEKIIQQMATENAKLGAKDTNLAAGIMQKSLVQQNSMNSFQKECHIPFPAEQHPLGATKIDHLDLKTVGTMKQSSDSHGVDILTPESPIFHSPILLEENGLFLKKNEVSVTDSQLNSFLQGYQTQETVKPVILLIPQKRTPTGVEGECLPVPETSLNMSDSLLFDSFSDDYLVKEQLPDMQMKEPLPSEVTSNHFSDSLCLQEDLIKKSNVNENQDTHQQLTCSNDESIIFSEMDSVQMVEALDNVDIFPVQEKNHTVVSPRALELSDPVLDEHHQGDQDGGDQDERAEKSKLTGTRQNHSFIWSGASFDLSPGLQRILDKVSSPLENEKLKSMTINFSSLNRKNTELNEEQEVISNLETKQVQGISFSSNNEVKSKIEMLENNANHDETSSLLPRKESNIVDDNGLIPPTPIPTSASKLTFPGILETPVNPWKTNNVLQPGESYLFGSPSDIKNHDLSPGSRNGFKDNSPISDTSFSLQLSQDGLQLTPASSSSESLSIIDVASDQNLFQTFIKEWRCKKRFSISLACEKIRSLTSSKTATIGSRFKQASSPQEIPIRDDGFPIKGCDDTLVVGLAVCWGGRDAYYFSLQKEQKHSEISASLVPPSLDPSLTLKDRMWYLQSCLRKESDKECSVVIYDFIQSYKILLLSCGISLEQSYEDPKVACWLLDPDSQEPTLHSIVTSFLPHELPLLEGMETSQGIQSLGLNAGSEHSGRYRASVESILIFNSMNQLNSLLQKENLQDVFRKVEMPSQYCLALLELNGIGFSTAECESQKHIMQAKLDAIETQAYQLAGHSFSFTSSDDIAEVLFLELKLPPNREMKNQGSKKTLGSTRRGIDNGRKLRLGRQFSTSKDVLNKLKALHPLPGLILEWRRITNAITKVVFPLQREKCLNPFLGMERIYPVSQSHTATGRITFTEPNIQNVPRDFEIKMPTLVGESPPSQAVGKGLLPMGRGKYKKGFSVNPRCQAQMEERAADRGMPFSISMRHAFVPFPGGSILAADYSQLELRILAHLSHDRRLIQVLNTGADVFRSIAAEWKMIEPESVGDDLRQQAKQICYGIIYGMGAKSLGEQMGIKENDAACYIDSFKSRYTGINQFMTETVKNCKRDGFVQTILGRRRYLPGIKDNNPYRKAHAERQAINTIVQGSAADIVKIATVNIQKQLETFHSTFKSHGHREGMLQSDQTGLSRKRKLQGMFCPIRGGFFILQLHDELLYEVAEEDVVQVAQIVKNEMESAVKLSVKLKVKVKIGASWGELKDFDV
Observed: enzyme activity
Action: inhibitor
Concentration: 77 µM
Reference: untreated
OC(CCN1CCCCC1)(c1ccccc1)c1ccccc1 gave a remaining activity of 97%.
O=C(O)c1cc(=O)c2ccccc2o1 has a remaining activity of 101%.
Nc1ccc(-c2ccc3ccccc3n2)cc1 has a remaining activity of 101%.
C[C@](N)(Cc1ccc(O)c(O)c1)C(=O)O gave a remaining activity of 96%.
With CN1CCC(=C2c3ccccc3Sc3ccccc32)CC1 the remaining activity was 103%.
N=C(N)N1CCc2ccccc2C1 gave a remaining activity of 101%.
O=C(O)C=Cc1ccc(O)c(O)c1 gave a remaining activity of 100%.
With CCN(CC)CCNC(=O)c1ccc(NS(C)(=O)=O)cc1 the remaining activity was 114%.

Sample 2
Cell line: mouse MPNST tumor cells
Technique: high-content nuclear imaging
Refers to: cell number
Concentration: 10 µM
Time: 12 h
Setting: mean of 2 replicates
Reference: plate mean
Reading: higher = more cells
CC1CS(=O)(=O)CCN1/N=C/c1ccc([N+](=O)[O-])o1 (stereo not shown) has a nuclei count of 0.827 z-score.
CC(=O)Nc1nc(C)c(S(=O)(=O)Nc2ccc(C(O)(C(F)(F)F)C(F)(F)F)cc2)s1 gave a nuclei count of 0.367 z-score.
CC(C)c1ccc(NC(=O)Cn2cnc3c2c(=O)n(C)c(=O)n3C)cc1 has a nuclei count of 0.432 z-score.
Cc1ccc(/C=N/NC(=O)c2ccccc2Oc2ccccc2)o1 has a nuclei count of 0.71 z-score.
The nuclei count of CCCCCCOc1cc2c(cc1N(C)c1ncc(C(=O)O)cn1)C(C)(C)CCC2(C)C is reported as 1.27 z-score.
The nuclei count of OCCN(CCO)c1ccc(C(c2ccc(Cl)cc2)c2ccc(N(CCO)CCO)cc2)cc1 is reported as 0.565 z-score.
With Cn1cc(-c2ccc3nnc(Sc4ccc5ncccc5c4)n3n2)cn1 the nuclei count was 4.52 z-score.
CC(C)NNC(=O)c1ccncc1 gave a nuclei count of 0.928 z-score.
For CS(=O)(=O)Nc1ccc([N+](=O)[O-])cc1Oc1ccccc1, the nuclei count was -0.647 z-score.
With OC(CCN1CCCC1)(c1ccccc1)C1CCCCC1 (stereo not shown) the nuclei count was 1.69 z-score.

Sample 3
Structure (SMILES): CNCc1ccccc1-c1csc([C@@H](C)Nc2nc(C)nc3cc(OC)c(OC)cc23)c1
Observed: cell-free assay
Technique: competition with immobilised ligand
Concentration: 1 µM
It gave 100% for remaining binding (NEK11 (Homo sapiens, UniProt Q8NG66)).
PRKACB (Homo sapiens, UniProt P22694) — remaining binding: 100%.
For EGFR (Homo sapiens, UniProt P00533): remaining binding read 90%.
For Tyrosine-protein kinase ABL1, phosphorylated (ABL1, Homo sapiens, UniProt P00519, F317L): remaining binding read 100%.
The remaining binding was 100% (DAPK2 (Homo sapiens, UniProt Q9UIK4)).
For CDK16 (Homo sapiens, UniProt Q00536): remaining binding read 87%.
For EGFR (Homo sapiens, UniProt P00533, G719S): remaining binding read 69%.
The remaining binding was 100% (STK17A (Homo sapiens, UniProt Q9UEE5)).
RET (Homo sapiens, UniProt P07949, V804L) — remaining binding: 73%.
For ERBB2 (Homo sapiens, UniProt P04626): remaining binding read 84%.
It gave 69% for remaining binding (Tyrosine-protein kinase ABL1, non-phosphorylated (ABL1, Homo sapiens, UniProt P00519, Q252H)).
The remaining binding was 81% (Mast/stem cell growth factor receptor Kit, autoinhibited (KIT, Homo sapiens, UniProt P10721)).
The remaining binding was 71% (MAPK10 (Homo sapiens, UniProt P53779)).
For GRK7 (Homo sapiens, UniProt Q8WTQ7): remaining binding read 83%.
It gave 60% for remaining binding (STK32C (Homo sapiens, UniProt Q86UX6)).
It gave 45% for remaining binding (STK33 (Homo sapiens, UniProt Q9BYT3)).
KIT (Homo sapiens, UniProt P10721, T670I/V559D) — remaining binding: 80%.

Sample 4
Target: Calcium/calmodulin-dependent protein kinase type II subunit alpha (CAMK2A, Homo sapiens, UniProt Q9UQM7)
UniProt Q9UQM7, sequence (whole entry, looked up): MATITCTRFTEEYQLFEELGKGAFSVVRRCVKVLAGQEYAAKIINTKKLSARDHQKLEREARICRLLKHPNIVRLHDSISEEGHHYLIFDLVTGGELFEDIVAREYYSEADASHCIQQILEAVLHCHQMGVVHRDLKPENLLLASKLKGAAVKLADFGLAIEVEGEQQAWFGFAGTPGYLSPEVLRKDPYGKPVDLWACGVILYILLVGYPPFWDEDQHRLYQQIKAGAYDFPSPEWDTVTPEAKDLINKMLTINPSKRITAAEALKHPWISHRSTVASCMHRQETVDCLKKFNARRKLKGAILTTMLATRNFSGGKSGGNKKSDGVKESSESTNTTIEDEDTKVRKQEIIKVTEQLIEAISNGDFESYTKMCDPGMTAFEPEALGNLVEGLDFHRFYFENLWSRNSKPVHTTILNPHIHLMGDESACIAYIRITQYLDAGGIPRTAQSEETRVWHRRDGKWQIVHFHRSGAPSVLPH
Observed: enzyme activity
Action: inhibitor
Concentration: 0.5 µM
Reference: control
CCN(CC)CCNC(=O)c1c(C)[nH]c(/C=C2\C(=O)Nc3ccc(Cl)cc32)c1C gave a remaining activity of 3.6%.
With N#C/C(=C\c1ccc(O)c(O)c1)C(=O)NCc1ccccc1 the remaining activity was 100%.
With COc1cc2c(cc1OC)-c1[nH]nc(Nc3cccc(F)c3)c1C2 the remaining activity was 95.6%.
With O=C(NC(NC(=S)Nc1ccc(F)c([N+](=O)[O-])c1)C(Cl)(Cl)Cl)C(c1ccccc1)c1ccccc1 (stereo not shown) the remaining activity was 96%.
With CCN(CC)CCNC(=O)c1c(C)[nH]c(/C=C2\C(=O)Nc3ccc(F)cc32)c1C the remaining activity was 14.5%.
CN([C@@H](Cc1ccc(OS(=O)(=O)c2cccc3cnccc23)cc1)C(=O)N1CCN(c2ccccc2)CC1)S(=O)(=O)c1cccc2cnccc12 gave a remaining activity of 107%.
COc1cc2ncnc(Nc3cccc(Cl)c3)c2cc1OC has a remaining activity of 98.2%.
With CN(C)C[C@H]1CCn2c(c(C3=C(c4cn(C)c5ccccc45)C(=O)NC3=O)c3ccccc32)C1 the remaining activity was 100%.
With O=C1C(Cl)=C(N2C(=O)CCC2=O)C(=O)c2ccccc21 the remaining activity was 89.6%.
O=C1c2ccccc2-c2n[nH]c3cccc1c23 gave a remaining activity of 82.6%.
Nc1cccc(-c2cc3c(Oc4cccc(O)c4)ncnc3[nH]2)c1 gave a remaining activity of 115%.

Excerpt of the above (sample 3):
PRKACB (Homo sapiens, UniProt P22694) — remaining binding: 100%.
For EGFR (Homo sapiens, UniProt P00533): remaining binding read 90%.
For Tyrosine-protein kinase ABL1, phosphorylated (ABL1, Homo sapiens, UniProt P00519, F317L): remaining binding read 100%.
